Assay results collected from several papers.
Numbered parts are unrelated; each lists some results of a single study.

Study 1 — technique: protein-binding microarray; molecule type: double-stranded DNA, one strand shown; medium: in vitro; concentration: not given; reading: higher = stronger binding
Target: Transcription factor Sp1 (SP1, Homo sapiens, UniProt P08047, residues 1-785, full length assumed)
Chain of UniProt P08047 (whole entry, looked up): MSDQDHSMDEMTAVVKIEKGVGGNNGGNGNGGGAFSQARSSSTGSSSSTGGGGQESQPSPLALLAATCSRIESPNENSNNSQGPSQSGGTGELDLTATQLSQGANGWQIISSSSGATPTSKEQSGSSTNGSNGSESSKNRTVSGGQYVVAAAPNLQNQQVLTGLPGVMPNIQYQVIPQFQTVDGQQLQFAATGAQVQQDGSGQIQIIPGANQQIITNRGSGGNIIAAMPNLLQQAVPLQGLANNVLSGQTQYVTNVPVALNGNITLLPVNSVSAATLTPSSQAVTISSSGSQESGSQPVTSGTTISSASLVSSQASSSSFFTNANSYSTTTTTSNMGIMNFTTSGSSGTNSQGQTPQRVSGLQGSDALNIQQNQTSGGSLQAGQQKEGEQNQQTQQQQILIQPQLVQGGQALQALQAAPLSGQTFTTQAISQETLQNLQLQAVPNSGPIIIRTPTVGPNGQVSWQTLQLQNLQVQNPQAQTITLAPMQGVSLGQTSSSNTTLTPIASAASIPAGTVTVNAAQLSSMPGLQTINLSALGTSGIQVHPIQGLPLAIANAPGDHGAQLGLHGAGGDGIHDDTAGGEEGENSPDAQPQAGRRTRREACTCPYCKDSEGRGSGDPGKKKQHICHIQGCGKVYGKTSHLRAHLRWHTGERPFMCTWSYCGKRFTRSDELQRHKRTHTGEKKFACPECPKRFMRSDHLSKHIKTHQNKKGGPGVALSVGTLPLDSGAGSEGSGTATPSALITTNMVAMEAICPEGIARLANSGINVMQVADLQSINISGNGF
Setting: k-mer, scored over probes, only values ≥0.25
Strand | E-score
CATATATA | 0.261
ACAAATGG | 0.305
TACAATAA | 0.256
CTACCCAC | 0.281

Study 2 — technique: RNA Bind-n-Seq; molecule type: RNA; medium: in vitro; concentration: 200 nM; setting: whole 134-nt RNA, ends assumed; with: 150 mM LiCl; relative to: input library; reading: higher = stronger binding; library: 7-deaza-guanosine replaces G
Target: Fragile X messenger ribonucleoprotein 1, C-terminal low-complexity region (Fmr1, Mus musculus, UniProt P35922)
Strand | log2 enrichment
GGGAGUUCUACAGUCCGACGAUCCCUGUGCUACACAUCGUAUGUACCGAAUCGGGGAAAAAAGGAAAAAAGGGAAAAAAGGGGAAAGUAUUAUGUUACGCCGUUCGGAUCUGCUGGAAUUCUCGGGUGUCAAGG | 0.199
GGGAGUUCUACAGUCCGACGAUCUCAAGUCCUGUGCUACACAUCGUAUGUACCGAAUCGGGAGGGUUUUUGGGUGGGAAAGUAUUAUGUUACGCCGUUCGGAUCUGCACUUCCUGGAAUUCUCGGGUGUCAAGG | -0.922
GGGAGUUCUACAGUCCGACGAUCAGUCCUGUGCUACACAUCGUAUGUACCGAAUCAAAUUUUUAAAUUUAAACCCCCAAAAAAGUAUUAUGUUACGCCGUUCGGAUCUGCACUUGGAAUUCUCGGGUGUCAAGG | 0.0933

Study 3 — technique: universal PBM; molecule type: double-stranded DNA, one strand shown; medium: in vitro; concentration: not given; reading: higher = stronger binding
Target: Sal-like protein 4, full length isoform B (SALL4, Homo sapiens, UniProt Q9UJQ4-2, residues 1-616)
Setting: 8-mer, flanks averaged, mean of replicates
Strand | E-score
AGTATTCG | 0.119
CTACCTTC | 0.133
CTTTTTCC | -0.0183
GGGCCGTA | -0.199

Other studies, line by line
Substance | target | test | system | conditions | scale | quantity | result
PhoQ, residues 284 288 289 292 302 303 SLCLSL | PhoP, residues 12 14 15 18 19 FWNTL (Escherichia coli, UniProt P23836) | Sort-seq, item: YFP reporter | E. coli | PhoQ-PhoP variant library, with: 10 µM Mg2+ | relative to: high Mg2+ state, higher = stronger signaling | fold induction | 5.49

Repeated from above (study 3):
Strand | E-score
AGTATTCG | 0.119
CTTTTTCC | -0.0183
